# Results collected from several papers.
# ± gives the spread as reported.
# Organism: SARS-CoV-2
Compound,assay,test system,conditions,EC50
Oc1c(Br)cc(Br)c2cccnc12,"viral replication, immunofluorescence","Vero E6, omicron",24 h,2980 nM
O=C1C(O)=C(Nc2ccc(F)cc2)C(=O)c2ccccc21,viral replication,Calu-3,48 h,1200 ± 200 nM
N#Cc1ccccc1C[C@@H](N)C(=O)N[C@H](Cc1ccc(Cl)cc1Cl)C(=O)N[C@H](CC(=O)Nc1nnc(N)[nH]1)Cc1ccc(F)cc1,viral replication,USA-WA1/2020,24 h,> 10000 nM
Cc1ccc(CNC(=O)c2cc(F)c(Br)cc2F)cc1C(=O)N[C@H](C)c1cccc2ccccc12,viral replication,"Vero C1008, WK-521 ancestral Wuhan",,24300 ± 5100 nM
CC(C)(C)[C@H](NC(=O)C(F)(F)F)C(=O)N1C[C@H]2[C@@H]([C@H]1C(=O)N[C@H](C#N)C[C@@H]1CCNC1=O)C2(C)C,"viral replication, nucleocapsid staining","Caco-2, Omicron BA.5",,400 nM
Cc1ccc(OCCN(C)C)cc1C(=O)N[C@H](C)c1cc(-c2cnn(C)c2)cc(-c2cnn(C(F)F)c2)c1,viral replication,"Caco-2, icSARS-CoV-2-nLuc reporter",,230 nM
Cc1cncc(C(=O)N2CCN(C(c3ccccc3)c3ccccc3)CC2)c1,viral replication,USA-WA1/2020,,410 nM
C[C@](C(=O)NC1CCOCC1)(c1cncnc1)N(C(=O)[C@H](F)Cl)c1ccc(OC(F)(F)Cl)cc1,viral replication,"Vero C1008, XBB.1",,40 nM
CC(=O)[C@@]1(O)CC[C@H]2[C@@H]3CCC4=CC(=O)CC[C@]4(C)[C@H]3CC[C@@]21C,"viral replication, plaque",,,2770 ± 490 nM
COc1ccc(CCCCCCCCC(=O)c2c(OC)cccc2OC)cc1OC,MTT,"Vero E6/TMPRSS2, WK-521 ancestral",,6000 nM
NC(=O)CCC1CCCN(C(=O)c2c[nH]n3c2nc(=O)c2ccccc23)C1 (stereo not drawn),viral replication,,,> 100000 nM
CN(C)CCCCNC(=O)C[C@H](Cc1ccc(F)cc1)NC(=O)[C@@H](Cc1ccc(Cl)cc1Cl)NC(=O)CCc1ccccc1C#N,viral replication,USA-WA1/2020,24 h,2300 nM
O=C(c1cc(Cl)cc(Cl)c1)N1CCCC2=CC3CC(CN4CCCCC34)C21 (stereo not drawn),pseudovirus entry,,pseudovirus,65600 nM
CCC1OC(C2(C)CC(C)C(O)(C3(C)CCC(C(O)C4(O)OC(CC5(O)OC(C(C)C(O)CC6CCC(C)C(C(C)C(=O)O)O6)CCC5C)C(C)CC4C)O3)O2)CCC1(C)O (stereo not drawn),cytopathic effect,Vero E6-hTMPRSS2,,14 nM
O=C(CN1CCCC2=CC3CC(CN4CCCCC34)C21)Nc1ccc(Br)c(C(F)(F)F)c1 (stereo not drawn),pseudovirus entry,,pseudovirus,4000 nM
CCC1c2ccsc2CCN1C(=O)Cn1nnc2ccccc21 (stereo not drawn),viral replication,,,14900 nM
C[C@H](c1cccc2ccccc12)N(C)Cc1ccc2[nH]ncc2c1,viral replication,"Caco-2-hACE2, USA-WA1/2020",24 h,≤ 10000 nM
CC1CCc2c(sc3ncnc(Sc4nnc(CN5CCCC5)o4)c23)C1 (stereo not drawn),viral replication,,,> 100000 nM
CCCCNC(=O)C[C@H](Cc1ccc(F)cc1)NC(=O)[C@@H](Cc1ccc(Cl)cc1Cl)NC(=O)[C@H](N)Cc1ccccc1C#N,viral replication,USA-WA1/2020,24 h,800 nM
Cc1ccc(OCCN(C)C)cc1C(=O)N[C@H](C)c1cc(-c2cnn(CCN3CCOCC3)c2)cc(-c2ccn(C)n2)c1,viral replication,"Caco-2, icSARS-CoV-2-nLuc reporter",,800 nM
COc1ccc(F)c2[nH]c(C(=O)N[C@@H](CC(C)C)C(=O)N[C@@H](C[C@@H]3CCNC3=O)C(=O)c3nc4ccccc4s3)cc12,"viral replication, RT-qPCR","VeroE6, WK-521",,3400 ± 150 nM
CC(C)C(=O)OC[C@H]1O[C@@](C#N)(n2ccc(N)nc2=O)[C@H](O)[C@@H]1O,"viral replication, qRT-PCR of viral RNA","Calu-3, Washington",,4500 ± 300 nM
Cc1cc(O)ccc1CN(C)[C@H](C)c1cccc2ccccc12,viral replication,"Caco-2-hACE2, USA-WA1/2020",24 h,> 60000 nM
CN(C)S(=O)(=O)c1ccc2c(c1)N(CCCN1CCC(CCO)CC1)c1ccccc1S2,"viral replication, GFP plate reader screen",,cell-based,13800 nM
CC(=O)Oc1ccc(CCCCCCCCC(=O)c2c(OC(C)=O)cccc2OC(C)=O)cc1OC(C)=O,MTT,"Vero E6/TMPRSS2, WK-521 ancestral",,1300 nM
COC(=O)Cn1[se]c2ccccc2c1=O,"viral replication, RT-qPCR",Vero,48 h,15000 nM
NCCNc1ccnc2cc(Cl)ccc12,viral replication,"Vero 76, MUC-IMB-1/2020",,5900 ± 3500 nM
CN(C)CCCCCNC(=O)C[C@H](Cc1ccc(F)cc1)NC(=O)[C@@H](Cc1ccc(Cl)cc1Cl)NC(=O)[C@H](N)Cc1ccccc1C#N,viral replication,USA-WA1/2020,24 h,1700 nM
O=C(CN1CCCC2=CC3CC(CN4CCCCC34)C21)Nc1cc(Br)ccc1F (stereo not drawn),pseudovirus entry,,pseudovirus,57500 nM
Cc1ccc(CNC(=O)c2ccccc2I)cc1C(=O)N[C@H](C)c1cccc2ccccc12,viral replication,"Vero C1008, WK-521 ancestral Wuhan",,13200 ± 900 nM
CN(C)c1ccc(N(Cc2cc(Cl)cs2)C(=O)Cc2cncc3cccc(O)c23)cc1,"viral replication, nucleocapsid staining","Calu-3, Omicron BA.5",,69 nM
Cc1ccc(N2CC(N3CCC(C)(O)CC3)C2)cc1C(=O)NC1(c2ccc3c4c(cccc24)CC3)CC1,viral replication,"Vero C1008, XBB.1",,169 nM
Cc1ccc(CNC(=O)c2ccc(F)c(F)c2)cc1C(=O)N[C@H](C)c1cccc2ccccc12,viral replication,"Vero C1008, WK-521 ancestral Wuhan",,3700 ± 600 nM
COc1ccc(-c2cnc3[nH]cc(C#Cc4cccnc4)c3c2)cc1OC,viral replication,"Vero E6, USA-WA1/2020",,300 nM
O=C1CC(c2ccccc2)Oc2ccccc21 (stereo not drawn),viral replication,Vero,,> 100000 nM
Clc1ccc(CN2CCCC3=CC4CC(CN5CCCCC45)C32)c(Cl)c1 (stereo not drawn),pseudovirus entry,,pseudovirus,22000 nM
Cc1ccc(OCCN(C)C)cc1C(=O)N[C@H](C)c1cc(-c2cnn(C)c2)cc(-c2cnn(C)c2)c1,viral replication,"Caco-2, icSARS-CoV-2-nLuc reporter",,310 nM
Cc1ccc(N2CC(N3CCC(C)(O)CC3)C2)cc1C(=O)NC1(c2ccc3c4c(cccc24)C(=O)N3C)CC1,viral replication,"Vero C1008, Omicron BA.5",,174 nM
CNC(=O)C[C@H](Cc1ccc(F)cc1)NC(=O)[C@@H](Cc1ccc(Cl)cc1Cl)NC(=O)[C@@H](N)C[C@H]1CCNC1=O,viral replication,USA-WA1/2020,24 h,> 10000 nM
C[C@](C(=O)NC1CCC(F)(F)CC1)(c1cncnc1)N(C(=O)[C@H](F)Cl)c1ccc(OC(F)(F)F)cc1,viral replication,Vero,,68 nM
CC(=O)OC1(C)CC(C=C(C)CCC=C(C)C)OC2(C=C(CO)C3CC(=O)C(C)=CC3O2)C1 (stereo not drawn),"viral replication, measured: nucleocapsid protein","Calu-3, Omicron BA.1",,700 nM
Cc1ccc(CNC(=O)c2ccccc2Cl)cc1C(=O)N[C@H](C)c1cccc2ccccc12,viral replication,"Vero C1008, WK-521 ancestral Wuhan",,35600 ± 1700 nM
CN(C)c1ccc(N(Cc2cc(Cl)cs2)C(=O)Cc2cncc3ccccc23)cc1,dsRNA staining,"Caco-2, Omicron BA.5",,700 nM
Cc1ccc(CNC(=O)c2ccc(Br)cc2F)cc1C(=O)N[C@H](C)c1cccc2ccccc12,viral replication,"Vero C1008, WK-521 ancestral Wuhan",,23900 ± 5800 nM
Clc1ccc(CN2CCCC3=CC4CC(CN5CCCCC45)C32)cc1 (stereo not drawn),pseudovirus entry,,pseudovirus,116000 nM
O=C(O)CNC(=O)c1ccccc1[Se][Se]c1ccccc1C(=O)NCC(=O)O,"viral replication, RT-qPCR",Vero,48 h,> 100000 nM
CO/C1=C\C(C)=C\[C@@H](C)[C@@H](O)[C@@H](C)C/C(C)=C/C=C/[C@H](OC)[C@@H]([C@@H](C)[C@@H](O)[C@H](C)C(=O)/C=C/[C@H](C)[C@H](O)C(C)C)OC1=O,"viral replication, measured: nucleocapsid protein","Calu-3, Delta B.1.617.2",,2 nM
CN(C)CCCCNC(=O)C[C@H](Cc1ccc(F)cc1)NC(=O)[C@@H](Cc1ccc(Cl)cc1Cl)NC(=O)[C@@H](N)Cc1ccccc1C#N,viral replication,USA-WA1/2020,24 h,> 10000 nM
O=C(CN1CCCC2=CC3CC(CN4CCCCC34)C21)Nc1ccc(Br)cc1 (stereo not drawn),pseudovirus entry,,pseudovirus,62800 nM
N#Cc1ccccc1C[C@@H](N)C(=O)N[C@H](Cc1ccc(Cl)cc1Cl)C(=O)N[C@H](CC(N)=O)Cc1ccc(F)cc1,viral replication,USA-WA1/2020,24 h,1200 nM
C[C@@H]1O[C@@H](n2c3ccccc3c3c4c(c5c6ccccc6[nH]c5c32)CNC4=O)C[C@@H](N)[C@H]1O,viral replication,mNeonGreen reporter,,280 nM

# Repeated from above:
Compound,assay,test system,conditions,EC50
CC(=O)Oc1ccc(CCCCCCCCC(=O)c2c(OC(C)=O)cccc2OC(C)=O)cc1OC(C)=O,MTT,"Vero E6/TMPRSS2, WK-521 ancestral",,1300 nM
O=C(O)CNC(=O)c1ccccc1[Se][Se]c1ccccc1C(=O)NCC(=O)O,"viral replication, RT-qPCR",Vero,48 h,> 100000 nM
Cc1cc(O)ccc1CN(C)[C@H](C)c1cccc2ccccc12,viral replication,"Caco-2-hACE2, USA-WA1/2020",24 h,> 60000 nM
O=C(c1cc(Cl)cc(Cl)c1)N1CCCC2=CC3CC(CN4CCCCC34)C21 (stereo not drawn),pseudovirus entry,,pseudovirus,65600 nM
CCC1c2ccsc2CCN1C(=O)Cn1nnc2ccccc21 (stereo not drawn),viral replication,,,14900 nM
COc1ccc(F)c2[nH]c(C(=O)N[C@@H](CC(C)C)C(=O)N[C@@H](C[C@@H]3CCNC3=O)C(=O)c3nc4ccccc4s3)cc12,"viral replication, RT-qPCR","VeroE6, WK-521",,3400 ± 150 nM
